Assay results pooled from the literature.
Numbered parts are unrelated; each lists some results of a single study. Substitutions count along the parent as printed.

Set 1
Target: Centromere-binding protein 1, full length, N-terminal tag (CBF1, Saccharomyces cerevisiae, UniProt P17106, residues 1-351)
Sequence of UniProt P17106 (whole entry, looked up): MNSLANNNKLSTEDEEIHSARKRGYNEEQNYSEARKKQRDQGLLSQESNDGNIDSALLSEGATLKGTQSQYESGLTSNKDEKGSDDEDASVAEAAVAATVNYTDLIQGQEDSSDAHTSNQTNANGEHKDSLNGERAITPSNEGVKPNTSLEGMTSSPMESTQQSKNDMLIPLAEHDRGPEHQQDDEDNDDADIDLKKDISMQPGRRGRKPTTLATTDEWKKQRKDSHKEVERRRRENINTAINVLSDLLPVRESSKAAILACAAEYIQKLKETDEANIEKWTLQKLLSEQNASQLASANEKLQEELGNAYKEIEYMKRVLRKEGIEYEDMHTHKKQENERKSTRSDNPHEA
Technique: protein-binding microarray
Form: double-stranded DNA, one strand shown
Medium: in vitro
Tested at: 0.8 µM
Setting: whole 60-bp probe, no competitor
Reading: higher = stronger binding
All sequences stand within: … GTCTTGATTCGCTTGACGCTGCTG
| Strand | fluorescence intensity [a.u.] |
| --- | --- |
| CTAGAAAGCATTCTTCACGCCATATTATGATCATTC | 539 |
| GAATTTTTTACAAACCACGTCAGGAGTTCAATTTAG | 700 |
| GAATTAGCGCCTCATGTGAGCAGGCCATTGTGGTAG | 855 |
| GAATAATTTAATAAATACGTGACACAGCGTATATAG | 763 |
| GAAACAAGAGGCCTTCACACCATTTATTTCAGCTAG | 484 |
| GAAACAAATAATCGTAACATCATCTCTGTCAAATAG | 509 |
| TGTACGAAGCTATTGACCGTACTTATAGTAGTTAGG | 508 |
| CCTAACTACTATAGTCATATGATATAGCTTCGTACA | 1080 |
| CCTAACTACTATAATCACCTGAGATAGCTTCGTACA | 683 |
| CTATGCTTTTTTCACATGACCATATTATATTCGTTC | 2480 |
| GAAACCAAAAAAGGGAACGTGACACGGCCTCGCTAG | 2330 |
| GAAAGAGAGACAAAAGACGTGCTTCCGGAATTTTAG | 514 |
| GAACGCTATTAACGTGGTGTAGTCATGTGACCGTAG | 13400 |
| CTATTCCATAGTTCTCATCAGTTGCAAACAGTATTC | 560 |

Set 2
Target: CCND2, cyclin fold, Cln2 fusion (human)
Technique: yeast growth competition, sequencing
Medium: yeast
Setting: weak parent motif
Relative to: not given
Reading: higher = stronger binding
Starting sequence: RB1 docking peptide (human); PKPLKKLRFDIEG
| Variant | normalised enrichment score |
| --- | --- |
| F9K | 0.326 |
| P3E | 0.501 |
| D10S | -0.672 |
| D10Y | 0.507 |
| R8S | 0.122 |
| K2L | 0.477 |
| K2F | -0.18 |
| P3I | 0.141 |

Set 3
Target: Protein C-ets-1 (ETS1, Homo sapiens, UniProt P14921, residues 1-441, Y397A, full length assumed)
Technique: protein-binding microarray
Form: double-stranded DNA, one strand shown
Medium: in vitro
Tested at: not given
Setting: k-mer, scored over probes, only values ≥0.25
Reading: higher = stronger binding
Target sequence (chain): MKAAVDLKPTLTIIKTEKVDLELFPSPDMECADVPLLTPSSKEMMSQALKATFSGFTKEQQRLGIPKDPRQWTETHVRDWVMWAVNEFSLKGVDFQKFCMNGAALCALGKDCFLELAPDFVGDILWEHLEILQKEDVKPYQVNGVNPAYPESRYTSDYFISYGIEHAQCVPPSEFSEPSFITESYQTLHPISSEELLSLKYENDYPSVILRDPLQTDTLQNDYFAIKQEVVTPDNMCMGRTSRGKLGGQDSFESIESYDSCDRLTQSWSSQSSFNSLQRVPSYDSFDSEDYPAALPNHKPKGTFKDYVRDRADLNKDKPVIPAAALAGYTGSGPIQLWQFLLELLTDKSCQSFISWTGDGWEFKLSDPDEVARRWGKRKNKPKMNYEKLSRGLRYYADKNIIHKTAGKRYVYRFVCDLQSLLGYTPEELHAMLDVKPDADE
| Strand | E-score |
| --- | --- |
| TATTGCAA | 0.251 |
| ATTTGTCG | 0.399 |
| CGTCAAAC | 0.315 |
| CACTTCCA | 0.292 |
| ATCCGGAT | 0.362 |
| CGGCAAAA | 0.289 |
| CTTCCGGC | 0.455 |

Set 4
Molecule: PhoQ, residues 284 288 289 292 302 303 SMYGEC
Technique: Sort-seq
Item: YFP reporter
Medium: E. coli
Setting: PhoQ-PhoP variant library
Added: 10 µM Mg2+
Relative to: high Mg2+ state
Reading: higher = stronger signaling
| target | fold induction |
| --- | --- |
| PhoP, residues 12 14 15 18 19 LHTVL (Escherichia coli, UniProt P23836) | 12.7 |
| PhoP, residues 12 14 15 18 19 TQAML (Escherichia coli, UniProt P23836) | 3.56 |
| PhoP, residues 12 14 15 18 19 NQCAL (Escherichia coli, UniProt P23836) | 2.65 |

Excerpt of the above (set 4):
| target | fold induction |
| --- | --- |
| PhoP, residues 12 14 15 18 19 NQCAL (Escherichia coli, UniProt P23836) | 2.65 |
| PhoP, residues 12 14 15 18 19 LHTVL (Escherichia coli, UniProt P23836) | 12.7 |
| PhoP, residues 12 14 15 18 19 TQAML (Escherichia coli, UniProt P23836) | 3.56 |
